Published values gathered from unrelated publications.
Numbered parts are unrelated; each lists some results of a single study.

Set 1 — method: protein binding microarray; molecule type: double-stranded DNA, one strand shown; sample: in vitro; tested at: not given; relative to: not given; direction: higher = stronger binding; endpoint: E-score
Target: Histone acetyltransferase KAT6A, winged helix 1, GST fusion (KAT6A, Homo sapiens, UniProt Q92794, residues 1-85)
Notes: 8-mer, flanks averaged, mean of 2 arrays, mostly near background
Construct (chain): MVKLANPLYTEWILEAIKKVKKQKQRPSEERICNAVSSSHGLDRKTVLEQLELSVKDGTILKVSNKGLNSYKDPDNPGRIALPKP
ACTGATAC: -0.0274
ATAAATTC: -0.198
AACGACCT: -0.0345
ACCTGGAT: -0.251
GAAGGCTA: -0.112
CCCTCTGA: -0.0998
CCACATTA: -0.212
CACGGCTC: 0.308
AAGGCAAA: -0.152
GCCTGCAA: -0.134
CAAGTTCA: -0.128
GACAGTAA: -0.00708
GCGTCCTA: 0.142
ATACCGAA: 0.108
GAACGTGA: -0.0593
ATGAGGCA: -0.223
GACAGTTA: -0.019
TGAATGAA: -0.242
CCCCGCCA: 0.354
GTATACAC: 0.145
ATACTTCA: -0.229
CGGTGAAA: 0.15
TATATTGA: -0.0492
AAATACAA: -0.182
AACACCCA: -0.239

Set 2 — method: RNA Bind-n-Seq; molecule type: RNA; sample: in vitro; tested at: 365 nM; relative to: no-protein control; direction: higher = stronger binding; endpoint: RBNS enrichment (R)
Target: RNA binding protein fox-1 homolog 2, RRM domain, GST-SBP tag (RBFOX2, Homo sapiens, UniProt O43251-10, residues 100-194)
Notes: natural RNA segment, single round, ends assumed
Constant ends, left off below: GGGAGUUCUACAGUCCGACGAUC … UGGAAUUCUCGGGUGCCAA
Residues (chain): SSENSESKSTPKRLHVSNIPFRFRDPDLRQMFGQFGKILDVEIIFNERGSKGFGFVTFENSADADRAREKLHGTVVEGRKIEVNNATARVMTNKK
CGUUUAUGUUGGUCGCAUCAAACAGCUUGUGGGAUUGUUUCCUCUUCUGUACAUGUUUUCCCCUUUGGUGAUACCCAGUGGUCCCAGCUAAUGGUGUCUGAGCAUAGUCA: 1.27
ACACCCAGAAAGGGGUGUCCUGACACCCCACCCAGGCCUUGAGGACGGUGCGGUAAUGACUGCCCAGGCUGCCUGAGUCUCUGACCCUCUGAGGAGUUCGAGCAGGGCAG: 0.274
GGUGCCUCAUGCUGACUUCUCCAGUAGGGUUUCAGGACAAACUACCAAGGAAUUGCCUCAGCCUCCUACCAGUCCUCCCUCACCCACCUUCUGUCUAGGUUCACUUGGUU: 0.366
UGUCAUCAGUAUUAACUCUGGGAUACUCCGGGCUCUGUGUCUUUCCCUGUGAGGCGACAGUACAUGUGAGAAGAGGUACAUUUGUUGGAUUUUUGUUAAUGUAUUUAUUU: 1.08
UGAAAGAAGCAUCCUGGAAACCAUGAAGUAUUCUACUAUGAAGGGCGCAUCUGCCCUGGUCAGCUGUUUCUCGAAGGGAGUGAUCUUAUCGAUAGAGGUAGAAAUGGUUU: 0.292
AGAAUGUGAAUAGUGCCAAGAAAAUCCUUUACAUUAUUUAAUAAAAAUUGAAUCCAUUUUCUAUCUUGAAAUGUUUUCCUUUGAGAAUACCAGAACAUUCCCUUAUUGCU: 0.581
AUAUUCCAAAAGUUACAGGAUAGAUGUAAAUCAAUAAAGUCAUUUGGCUGUGUUUUAGACAGCUCCAGAAUAUAUUGUUCAGCGCAGUAAAAUAUAUUUGGAAUUUGAUG: 0.66
UCCUGUUAUAGAGGAGGCUACGUAGACCAAAAUGAGAAAAGGAAUGUGGCCACAGAAUGUAACCGUCCAGUUUCUGCCUUUCACUUUCUUGGGGGUUGCUUGUGAAAUUA: 2.42
CUGCCUCUGCCUUCUGGACACCGUUUCCUCUCCGCUGCUUCAGAGAGCUUUGCCUCGCCUCCGCCUGCGCUCCCCUCCAGGGUCCUUCUGCUGGCUGCGGACUCGGCCCA: 0.598
UCCAAAGGACCAACCUGCCUUACACAUCUCAAGGAAUUCAGCUGUUGAAAUCAUUUGAACUAAUCAAGGAAUAAAUCCUAAUGUUCUGGGACUUUAUUUUCACAUGUUAA: 0.407
UUAAAAAUGUUUAAAUAUUUUGCUUUGCUAAUGUGCUGAUCCGCACUAACUCAUCUUUGCAAAAGGAACUGCUCCCUCGGCGUGCCCCAGCUGGGGCCUCUGAAGGGAUU: 0.232
AGUGACCGGCUGCUUUUCCCUAAGCCAAGGGCCUCUUGCGGUCCCUUCUUACUCACACACAAAAUGUACCCAGUAUUCUAGGUAGUGCCCUAUUUUACAAUUGUAAAACU: 0.409

Set 3 — method: RNA Bind-n-Seq; molecule type: RNA; sample: in vitro; tested at: 200 nM; notes: whole 134-nt RNA, ends assumed; with: 150 mM LiCl; relative to: input library; direction: higher = stronger binding; endpoint: log2 enrichment; all molecules: 7-deaza-guanosine replaces G
Target: Fragile X messenger ribonucleoprotein 1, C-terminal low-complexity region (Fmr1, Mus musculus, UniProt P35922)
Constant ends, left off below: GGGAGUUCUACAGUCCGACGAUC … UGGAAUUCUCGGGUGUCAAGG
ACAAUGCAGGUGGGCAUCUUUGGGAAGUGGGGCAAGGGGGGGAUAGGGAGGGGGGUAACACUUUGGGAACAGGUGGUCCCAGGUCGUUUC: 1.35
UCAAGUCCUGUGCUACACAUCGUAUGUACCGAAUCGGGGCCGGGCCGGCCGGGGAAAGUAUUAUGUUACGCCGUUCGGAUCUGCACUUCC: 0.511
UGGGAGGUGGAUUUUGUUUAUUUUUUUAGCUCAUUUCCAGGGUUGGGAAUUUUUUUUUAAUAUGUGUCAUGAAUAAAGUUGUUUUUGAAA: -1.07
AAGUCCUGUGCUACACAUCGUAUGUACCGAAUCGGUUUUGGGGUUUUGGUUUUGGGAAAGUAUUAUGUUACGCCGUUCGGAUCUGCACUU: -1.92
GUCCUGUGCUACACAUCGUAUGUACCGAAUCGGGCCCCCGGGGCCCCCGGGGCCCCCGGAAAGUAUUAUGUUACGCCGUUCGGAUCUGCA: 0.455
ACCAUGCAGGUGGGCAUCUUUGGGAAGUGGGGCAAGGGGGGGACAGGGAGGGGGGUAACACUUUGGGAACAGGUGGUCCCAGGUCGUUUC: 0.825
AGUCCUGUGCUACACAUCGUAUGUACCGAAUCGGGUUUGGGAAAGGGUUUUUUUGGGAAAGUAUUAUGUUACGCCGUUCGGAUCUGCACU: -1.78
UCCUGUGCUACACAUCGUAUGUACCGAAUCGGGGUUUUUGGGGAAAAAGGGGAAAGGGGAAAGUAUUAUGUUACGCCGUUCGGAUCUGCA: -0.837
CCUGUGCUACACAUCGUAUGUACCGAAUCGGUUUUUUGGGGUUUUUUGGGGUUUUUUGGGAAAGUAUUAUGUUACGCCGUUCGGAUCUGC: -0.655
CCUGUGCUACACAUCGUAUGUACCGAAUCGGGUUUUUUUGGUUUUUUUGGUUUUUUUGGGGAAAGUAUUAUGUUACGCCGUUCGGAUCUG: -0.865
UCAAGUCCUGUGCUACACAUCGUAUGUACCGAAUCGGGGAAGGAAGGGGAAGGGGAAAGUAUUAUGUUACGCCGUUCGGAUCUGCACUUC: -0.4

Set 4 — method: aptamer microarray, sandwich; molecule type: DNA with 2'F-ANA; sample: in vitro; tested at: 200 nM; with: Cy3 exosite-II aptamer, 400 nM; direction: higher = stronger binding; endpoint: mean fluorescence intensity; sequence: GGTTGGTGTGGTTGG
Target: Prothrombin, mature alpha-thrombin (F2, Homo sapiens, UniProt P00734)
Notes: whole 15-mer aptamer, many near background
2'F-ANA at 1 2 4 6 7 8 13 15: 94.6 a.u.
2'F-ANA at 1 3 5 6 7 10 11 13 14 15: 55.1 a.u.
2'F-ANA at 2 3 5 6 8 9 10 12: 78.1 a.u.
2'F-ANA at 3 4 5 9 10 14 15: 47.8 a.u.
2'F-ANA at 1 2 6 7 8 10 11 14 15: 85 a.u.
2'F-ANA at 2 7 8 9: 519 a.u.
2'F-ANA at 2 5 8 10 12 13 14 15: 47 a.u.
2'F-ANA at 1 3 7 8 11 12 13 15: 474 a.u.
2'F-ANA at 2 6 7 9 10 11 12 13: 118 a.u.
2'F-ANA at 1 2 3 5 7 8 10 14: 45 a.u.
2'F-ANA at 2 3 7 8 9 12 14 15: 538 a.u.
2'F-ANA at 2 3 5 7 8 13 14: 54.3 a.u.
2'F-ANA at 2 3 6 7 10 11 12 13: 338 a.u.
2'F-ANA at 2 5 7 11 13 15: 50.5 a.u.
2'F-ANA at 1 3 4 6 7 9 10 11 13 14: 72.2 a.u.
2'F-ANA at 1 2 3 6 8 9 10 11 13 15: 58.2 a.u.
2'F-ANA at 1 2 14 15: 53.3 a.u.
2'F-ANA at 4 7 8 9 12: 604 a.u.
2'F-ANA at 1 2 3 5 6 7 8 10 11 12 15: 49.5 a.u.
2'F-ANA at 1 2 7 9 10 14: 44.9 a.u.
2'F-ANA at 1 3 7 10 11 14: 55.5 a.u.
2'F-ANA at 1 3 4 5 7 8 9 10 13 14 15: 51.7 a.u.
2'F-ANA at 5 6 12 13 14 15: 49.2 a.u.
2'F-ANA at 6 7 9 12 13: 516 a.u.
2'F-ANA at 1 3 5 7 8 11 13 14 15: 57.7 a.u.

Some of these lines once more (set 3):
UGGGAGGUGGAUUUUGUUUAUUUUUUUAGCUCAUUUCCAGGGUUGGGAAUUUUUUUUUAAUAUGUGUCAUGAAUAAAGUUGUUUUUGAAA: -1.07
CCUGUGCUACACAUCGUAUGUACCGAAUCGGGUUUUUUUGGUUUUUUUGGUUUUUUUGGGGAAAGUAUUAUGUUACGCCGUUCGGAUCUG: -0.865
UCCUGUGCUACACAUCGUAUGUACCGAAUCGGGGUUUUUGGGGAAAAAGGGGAAAGGGGAAAGUAUUAUGUUACGCCGUUCGGAUCUGCA: -0.837
ACCAUGCAGGUGGGCAUCUUUGGGAAGUGGGGCAAGGGGGGGACAGGGAGGGGGGUAACACUUUGGGAACAGGUGGUCCCAGGUCGUUUC: 0.825
GUCCUGUGCUACACAUCGUAUGUACCGAAUCGGGCCCCCGGGGCCCCCGGGGCCCCCGGAAAGUAUUAUGUUACGCCGUUCGGAUCUGCA: 0.455
ACAAUGCAGGUGGGCAUCUUUGGGAAGUGGGGCAAGGGGGGGAUAGGGAGGGGGGUAACACUUUGGGAACAGGUGGUCCCAGGUCGUUUC: 1.35
UCAAGUCCUGUGCUACACAUCGUAUGUACCGAAUCGGGGCCGGGCCGGCCGGGGAAAGUAUUAUGUUACGCCGUUCGGAUCUGCACUUCC: 0.511
AAGUCCUGUGCUACACAUCGUAUGUACCGAAUCGGUUUUGGGGUUUUGGUUUUGGGAAAGUAUUAUGUUACGCCGUUCGGAUCUGCACUU: -1.92
